# Published values of several laboratories.
# A part holds a random share of what one study measured.

# Set 1 — read-out: enzyme activity; mode: inhibitor; concentration: 20 µM
# Target: Replicase polyprotein 1ab, polymerase (rep, Severe acute respiratory syndrome coronavirus 2, UniProt P0DTD1)
SMILES,inhibition [%]
Nc1cc(F)ccc1NC(=O)c1ccc(CNC(=O)/C=C/c2cccnc2)cc1,-2.09
C[C@]12CC[C@@H]3c4ccc(O)cc4CC[C@H]3[C@@H]1C[C@@H](O)[C@@H]2O,-2.89
CCC[C@@H]1CC2=CC(=O)CC[C@]2(C)[C@H]2CC[C@@]3(C)[C@@H](CC[C@@]3(O)CCC(=O)O)[C@H]12,4.44
O=C(O)CCC(=O)Nc1ccc(S(=O)(=O)Nc2nccs2)cc1,11.1
CN(C)c1cc(NC(=O)CNC(C)(C)C)c(O)c2c1C[C@H]1C[C@H]3[C@H](N(C)C)C(O)=C(C(N)=O)C(=O)[C@@]3(O)C(O)=C1C2=O,31.4
COC(=O)Nc1ccc(-c2nc(N3CCOCC3)c3cnn(C4CCN(C(=O)OC)CC4)c3n2)cc1,-2.73
CC[C@H]1[C@@H](O)[C@@H]2[C@H](CC[C@]3(C)[C@@H]([C@H](C)CCOS(=O)(=O)O)CC[C@@H]23)[C@@]2(C)CC[C@@H](O)C[C@@H]12,0.75
CC(C)NC(=O)COc1cccc(-c2nc(Nc3ccc4[nH]ncc4c3)c3ccccc3n2)c1,0.82
CC(C)OC(=O)CNC(=O)[C@H](CS)NC(=O)CC[C@H](N)C(=O)O,1.96
CCOC(=O)COc1ccc2c(=O)cc(-c3ccccc3)oc2c1,-16
O=C(O)CCNc1cc(N2CCc3ccccc3CC2)nc(-c2cccnc2)n1,-5.7
Nc1nc(=O)n([C@H]2C[C@H](O)[C@@H](CO)O2)cc1F,-4.99
OCC(O)CN1CCN(c2ccccc2)CC1 (centres unmarked),5.12
COc1ccccc1OC(=O)c1ccccc1OC(C)=O,-18.9
CC(=O)Nc1c(I)c(C(=O)O)c(I)c(N(C)C(C)=O)c1I,-3.25
CCn1nc(C2CCN(C(=O)CCO)CC2)nc1-c1cnc(N)c(-c2nnc(C(C)(C)C)o2)n1,5.63
O=C1C[C@@]2(C(=O)N1)C(=O)N(Cc1ccc(Br)cc1F)C(=O)c1cccn12,1.38
CC(C)c1onc(-c2c(Cl)cccc2Cl)c1COc1ccc(/C=C/c2cccc(C(=O)O)c2)c(Cl)c1,1.07
COc1cccc(OC)c1-c1cc(C(=O)NC(CC(C)C)C(=O)O)nn1-c1ccnc2cc(Cl)ccc12 (centres unmarked),10.2
O=P(O)(O)C(O)(Cc1cccnc1)P(=O)(O)O,-5.12
O=c1[nH]c2ccc(Cl)cc2c(N[C@@H]2CN3CCC2CC3)c1-c1nc2ccccc2[nH]1,2.63
COC1(C[S@@+]([O-])c2ccccc2)CCN(CCc2c[nH]c3ccc(F)cc23)CC1,-4.42
CC1(C)CNc2cc(NC(=O)c3cccnc3NCc3ccncc3)ccc21,4.39
O=C(NNc1nc2cc(F)ccc2n2cccc12)c1cnccn1,-1.19
Cc1coc2c1C(=O)C(=O)c1c-2ccc2c1CCCC2(C)C,2.94

# Set 2 — cell line: HEK-293T; read-out: pseudovirus infection; technique: FDA-approved drug library screen; organism: VSV pseudotyped with SARS-CoV-2 spike; concentration: 10 µM; time: 16 h; baseline: vehicle-treated
SMILES,GFP-positive cells [%]
C[C@@H]1O[C@@H]1P(=O)(O)O,88.7
O=C(O)CCCCCCCC(=O)O,87.3
CO/N=C(\C(=O)N[C@@H]1C(=O)N2C(C(=O)O)=C(COC(N)=O)CS[C@H]12)c1ccco1,73.2
Cc1c(-c2ccccc2)oc2c(C(=O)OCCN3CCCCC3)cccc2c1=O,94.3

# Set 3 — technique: protein-binding microarray; form: double-stranded DNA, one strand shown; medium: in vitro; concentration: 940 nM top; setting: 60-bp whole probe; added: salmon DNA 0.4 mg/ml; baseline: random background probes; reading: higher = stronger binding; constant ends, left off below: GCCTAGCAC … GTCTTGATTCGCTTGACGCTGCTG
# Target: Interferon regulatory factor 5, full length, phosphomimetic (IRF5, Homo sapiens, UniProt Q13568-2, residues 1-514, S451D/S453D/S456D/S462D)
Oligonucleotide,fitted relative affinity [z-score]
GACGATATCGGGTTTCGAGGCGTGCTA,1.53
GTAGATTTCAGTTTCGATTAGTGCTAG,9.55
GACGGACTGCGGTATCGGGACGTGCTA,0.168
TTGCGTCTGGGTGTTTTCTAGTGCTAG,0.432
GACGATCTCAGTATCGATACGTGCTAG,5.41
GACTATATCAGTATCGAGACGTGCTAG,1.97
GACGGTTTCGACTTTCGGGAGGTGCTA,7.66
TTAGGTTTCGGGTTTCGGTAAGTGCTA,11.5

# Set 4 — technique: protein-binding microarray; form: double-stranded DNA, one strand shown; medium: in vitro; concentration: not given; reading: higher = stronger binding
# Target: Protein max, full length (MAX, Homo sapiens, UniProt P61244-2, residues 1-151)
# Setting: k-mer, scored over probes, only values ≥0.25
Oligonucleotide,E-score
CGCAACCA,0.252
CTCCACGC,0.392
CATGAGGA,0.391
CATGGTCG,0.354
CACAGGTG,0.32
CACGCGCC,0.446
AGGCGTGA,0.33
CGCACCCC,0.288

# Set 5 — read-out: enzyme activity; mode: inhibitor; concentration: 20 µM
# Target: Replicase polyprotein 1ab, main protease (rep, Severe acute respiratory syndrome coronavirus 2, UniProt P0DTD1)
Structure (SMILES),inhibition [%]
NC[C@@H]1O[C@H](C23CC4CC(CC(C4)C2)C3)Cc2c1ccc(O)c2O,-14
CCCOc1ccc(CSc2nnc[nH]2)cc1,32.8
c1ccc2sc(SNC3CCCCC3)nc2c1,69.6

# Set 6 — technique: protein binding microarray; form: double-stranded DNA, one strand shown; medium: in vitro; concentration: not given; baseline: not given; reading: higher = stronger binding
# Target: Histone acetyltransferase KAT6A, winged helix 1, GST fusion (KAT6A, Homo sapiens, UniProt Q92794, residues 1-85)
# Setting: 8-mer, flanks averaged, mean of 2 arrays, mostly near background
# Construct (chain): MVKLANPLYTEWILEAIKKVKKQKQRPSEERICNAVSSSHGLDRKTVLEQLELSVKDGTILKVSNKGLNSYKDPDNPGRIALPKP
Oligonucleotide,E-score
AGTGGGAC,-0.158
ACCGCGAG,0.278
TACTATCA,0.0145
GTTGCCCA,-0.0738
CCTGATCG,0.0361
AGCCTTGG,-0.185
AGCGACAG,0.137
ATACGTGC,-0.0667

# Repeated from above (set 4):
Oligonucleotide,E-score
CATGAGGA,0.391
CATGGTCG,0.354
CACAGGTG,0.32
